Measurements gathered from unrelated publications.
Every numbered part comes from another study and shows a few of its results, in no order.

Study 1 — cell line: HEK-293T-ACE2-TMPRSS2; method: cell count; tested at: 10 µM; measurement: viability
COc1ccc(NC(=O)CC(=O)N2CCC(Oc3ccc(C)cc3)CC2)c(OC)c1: 88%
C=CCN1CC(C(=O)NCc2ccc(S(=O)(=O)N(C)C)cc2)CC1=O (stereo not shown): 65%
O=C(CC1CC1)N1CC(F)(F)C[C@H]1c1nc(-c2cccnc2)no1: 96%
CNC(=O)NC(=O)Cn1ncc(Cl)c(Cl)c1=O: 70%
CN1CCN(C(=O)c2ccc3oc(Cc4ccccc4)nc3c2)CC1c1ccccc1 (stereo not shown): 107%
O=c1c(Cl)c(Cl)cnn1Cc1ccc(F)cc1Br: 149%
Cc1ncsc1CCN(C)C(=O)[C@H]1Cc2ccccc2CN1: 68%
O=C(CN1CCN(C(=O)c2cccs2)CC1)Nc1ccc2c(c1)CCC2: 88%
COc1ccc([N+](=O)[O-])c(S(=O)(=O)c2ccc(Cl)cc2)n1: 65%
O=C(CCc1ccco1)NCc1cccnc1-n1cnc2ccccc21: 106%
Cn1c(CC2CCNCC2)nnc1SCc1cc(F)ccc1Cl: 87%
CN(C)C(=O)N1CCC(C(=O)N2CCOC(Cc3cccc4ccccc34)C2)CC1 (stereo not shown): 108%
CC(C)CS(=O)(=O)c1oc(-c2ccc(F)cc2)nc1S(=O)(=O)c1ccc(F)cc1: 77%
O=S(=O)(c1ccc(SCc2cc3c(cc2Br)OCO3)nc1)N1CCCC1: 91%
CC1CCN(c2nccnc2Oc2ccc(C(=O)N3CCN(C(=O)c4ccco4)CC3)cc2)CC1: 107%
Cc1cc2c(cc1O)NC(=O)CC2c1ccc(Oc2ccccc2)nc1 (stereo not shown): 105%
N#Cc1c(Cl)c(Cl)c(Cl)c(Cl)c1C#N: 73%
OC[C@@H]1CN(C2CCSCC2)C[C@H]1c1nc(-c2cccnc2)no1: 93%
COCCCN1CCC(NC(=O)c2cc(Cl)c(N)c3c2OCC3)CC1: 85%
CC(C)N(Cc1nccn1C)C(=O)C1CCCCO1 (stereo not shown): 67%
CCCC(=O)Nc1nc2ccc(NC(=O)C3(c4ccccc4)CCCC3)cc2s1: 66%
O=C(NC1CCN(Cc2ccccc2)CC1)c1cc2c(=O)n(Cc3ccccc3)ccc2s1: 215%
CCc1ccccc1-c1ccc(NC(C)=O)c(OC)c1: 81%
Cc1ccc(C(=O)N2CCC3(CCCN(Cc4ccc(F)cc4)C3)C2)cn1 (stereo not shown): 114%
Nc1nc(N)c2nc(-c3ccccc3)c(N)nc2n1: 70%

Study 2 — read-out: cell-free assay; method: competition with immobilised ligand; tested at: 1 µM; measurement: remaining binding
Target: Cyclin-dependent kinase 2 homolog (CRK2, Plasmodium falciparum, UniProt P61075)
Chain of UniProt P61075 (whole entry, looked up): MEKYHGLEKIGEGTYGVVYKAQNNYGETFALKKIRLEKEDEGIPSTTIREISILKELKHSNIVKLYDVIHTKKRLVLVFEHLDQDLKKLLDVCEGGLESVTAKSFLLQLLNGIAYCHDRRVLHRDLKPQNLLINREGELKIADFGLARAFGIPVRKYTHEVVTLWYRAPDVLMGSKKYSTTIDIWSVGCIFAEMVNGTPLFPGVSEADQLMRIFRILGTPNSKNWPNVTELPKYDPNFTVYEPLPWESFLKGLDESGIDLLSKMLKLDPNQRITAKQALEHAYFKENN
FC(F)(F)c1ccc2c(c1)nc(-c1cccnc1)n2C1CC1: 100%
CCCCN(CCCC)C(=O)CN1C[C@H](c2cc(OC)c3c(c2)OCO3)[C@@H](C(=O)O)[C@@H]1CC(C)(C)CCC: 72.2%
CC(C)(O)c1cncc(-c2nc3ccc(F)cc3n2C2CC2)c1: 100%
CC1=C(C#N)[C@@H](c2ccc3[nH]nc(C)c3c2)C(C#N)=C(c2ccc(Cl)cc2)N1: 92.5%

Study 3 — organism: Vesicular stomatitis virus; read-out: pseudovirus infection; tested at: concentration not given; setting: VSV-G control pseudotype; relative to: vehicle; measurement: GFP-positive cells
CS(=O)(=O)c1ccc(C(=O)Nc2ccc(Cl)c(-c3ccccn3)c2)c(Cl)c1: 2.43%
Cc1nc2c([nH]1)-c1ccccc1N(C(=O)c1ccc(NC(=O)c3ccccc3-c3ccccc3)cc1)CC2.Cl: 105%
NCCC(O)(P(=O)([O-])O)P(=O)([O-])O.[Na+].[Na+]: 127%
CC[C@H](Nc1ncnc2[nH]cnc12)c1nc2cccc(F)c2c(=O)n1-c1ccccc1: 98.8%
COc1cc2c(cc1Cc1cccc(Cl)c1F)c(=O)c(C(=O)O)cn2[C@H](CO)C(C)C: 104%
CO[C@H]1C[C@@H]2CC[C@@H](C)[C@@](O)(O2)C(=O)C(=O)N2CCCC[C@H]2C(=O)O[C@H]([C@H](C)C[C@@H]2CC[C@@H](OC(=O)C(C)(CO)CO)[C@H](OC)C2)CC(=O)[C@H](C)/C=C(\C)[C@@H](O)[C@@H](OC)C(=O)[C@H](C)C[C@H](C)/C=C/C=C/C=C/1C: 91.8%
Cl.O=C1[C@@H]2[C@H]3CC[C@H](C3)[C@@H]2C(=O)N1C[C@@H]1CCCC[C@H]1CN1CCN(c2nsc3ccccc23)CC1: 109%
CNC[C@H](O)[C@@H](O)[C@H](O)[C@H](O)CO.CNC[C@H](O)[C@@H](O)[C@H](O)[C@H](O)CO.C[C@@H](O[C@H]1OCCN(Cc2nn(P(=O)(O)O)c(=O)[nH]2)[C@H]1c1ccc(F)cc1)c1cc(C(F)(F)F)cc(C(F)(F)F)c1: 112%
CC1(C)CCC(CN2CCN(c3ccc(C(=O)NS(=O)(=O)c4ccc(NCC5CCOCC5)c([N+](=O)[O-])c4)c(Oc4cnc5[nH]ccc5c4)c3)CC2)=C(c2ccc(Cl)cc2)C1: 0.14%
Cc1ccc(-n2nccn2)c(C(=O)N2CCN(c3nc4cc(Cl)ccc4o3)CC[C@H]2C)c1: 106%
Cc1cc(C#N)cc(C)c1Oc1nc(Nc2ccc(C#N)cc2)nc(N)c1Br: 22.8%
COc1cc2c(cc1OC)CC(=O)N(CCCN(C)C[C@H]1Cc3cc(OC)c(OC)cc31)CC2.Cl: 97.5%
CC(C)CN(C[C@@H](O)[C@H](Cc1ccccc1)NC(=O)O[C@H]1CO[C@H]2OCC[C@H]21)S(=O)(=O)c1ccc(N)cc1.CCO: 105%
COS(=O)(=O)[O-].C[N+]1(C)CCC(=C(c2ccccc2)c2ccccc2)CC1: 99.3%
C[C@@H](O)[C@@H]1NC(=O)[C@H](CCCCN)NC(=O)[C@@H](Cc2c[nH]c3ccccc23)NC(=O)[C@H](Cc2ccccc2)NC(=O)[C@@H](NC(=O)[C@H](N)Cc2ccccc2)CSSC[C@@H](C(=O)N[C@H](CO)[C@@H](C)O)NC1=O: 106%
O=C1CN(/N=C/c2ccc(-c3ccc([N+](=O)[O-])cc3)o2)C(=O)[N-]1.[Na+]: 109%
CN(C)C/C=C/C(=O)Nc1cc2c(Nc3ccc(F)c(Cl)c3)ncnc2cc1O[C@H]1CCOC1.O=C(O)/C=C\C(=O)O.O=C(O)/C=C\C(=O)O: 106%
COC(=O)c1ccc2c(c1)NC(=O)/C2=C(\Nc1ccc(N(C)C(=O)CN2CCN(C)CC2)cc1)c1ccccc1: 150%
COc1cc2nccc(Oc3ccc(NC(=O)C4(C(=O)Nc5ccc(F)cc5)CC4)cc3)c2cc1OC.O=C(O)C[C@H](O)C(=O)O: 105%
CNC(=O)c1cc(Oc2ccc(NC(=O)Nc3ccc(Cl)c(C(F)(F)F)c3)c(F)c2)ccn1: 24.4%
O=C(/C=C/c1cccc(S(=O)(=O)Nc2ccccc2)c1)NO: 89.6%
CC(C)C(=O)OCC(=O)[C@@]12O[C@H](C3CCCCC3)O[C@@H]1C[C@H]1[C@@H]3CCC4=CC(=O)C=C[C@]4(C)[C@H]3[C@@H](O)C[C@@]12C: 113%
Br.Cc1ccc(Sc2ccccc2N2CCNCC2)c(C)c1: 102%
CC(C)C[C@H](NC(=O)CNC(=O)c1cc(Cl)ccc1Cl)B(O)O: 7.99%
N#CC[C@H](C1CCCC1)n1cc(-c2ncnc3[nH]ccc23)cn1: 153%

Mixed results
Cc1ncsc1-c1ccc(CNC(=O)[C@@H]2C[C@@H](O)CN2C(=O)[C@@H](NC(=O)CCCCCNC(=O)Cc2ccccc2)C(C)(C)C)cc1 — logD (1,9-decadiene/water) (exponential regression of PRP log k'): -3.05

Repeated from above (study 3):
N#CC[C@H](C1CCCC1)n1cc(-c2ncnc3[nH]ccc23)cn1: 153%
CC(C)C[C@H](NC(=O)CNC(=O)c1cc(Cl)ccc1Cl)B(O)O: 7.99%
CC[C@H](Nc1ncnc2[nH]cnc12)c1nc2cccc(F)c2c(=O)n1-c1ccccc1: 98.8%
CS(=O)(=O)c1ccc(C(=O)Nc2ccc(Cl)c(-c3ccccn3)c2)c(Cl)c1: 2.43%
CNC(=O)c1cc(Oc2ccc(NC(=O)Nc3ccc(Cl)c(C(F)(F)F)c3)c(F)c2)ccn1: 24.4%
Cc1nc2c([nH]1)-c1ccccc1N(C(=O)c1ccc(NC(=O)c3ccccc3-c3ccccc3)cc1)CC2.Cl: 105%
COS(=O)(=O)[O-].C[N+]1(C)CCC(=C(c2ccccc2)c2ccccc2)CC1: 99.3%
CC(C)C(=O)OCC(=O)[C@@]12O[C@H](C3CCCCC3)O[C@@H]1C[C@H]1[C@@H]3CCC4=CC(=O)C=C[C@]4(C)[C@H]3[C@@H](O)C[C@@]12C: 113%
